Experimental data of several laboratories.

| SMILES | test | test system | setting | how to read | mRNA level |
| --- | --- | --- | --- | --- | --- |
| O=C(NC1Cc2ccccc2C1)c1c(-c2ccc3ccccc3c2)nc2occn12 | inducer, refers to: Cyp2b10 | hCAR transgenic male mice, liver | intraperitoneal, 10 mg/kg, 24 h | – | increased |
| N#Cc1ccc2c(CN3CCOCC3)cc(-c3ccc([C@H]4CCC(=O)N4)cc3)nc2c1 | decreased, refers to: Tnf | BTBR ob/ob mice, male, diabetic wound model, wound tissue | dose not given, 21 days | baseline: vehicle | decreased |
| CC(=O)[C@H]1[C@H](C#N)C[C@H]2[C@@H]3CC=C4C[C@@H](O)CC[C@]4(C)[C@H]3CC[C@@]21C | qPCR, refers to: Oatp2 | wild-type mice, liver | 10 mg/kg, 3 days | baseline: vehicle | increased |
| Cc1cc(/C=C2\Oc3cc(OCC4CC4)ccc3C2=O)cc(C)c1OC(C)(C)C(=O)O | RT-PCR, refers to: ANGPTL3, Apo C-III | db/db mice, MCD diet-fed, liver | 30 mg/kg | baseline: model group | decreased |
| C=C1CC[C@H](OCCCNC(=O)CCOCCOCCOCCOCCOCCOCCOCCOCCOCCOCCOCCOCCOCCOCCOCCOCCOCCOCCOCCOCCOCCOCCOCCOCCOCCOCCOCCOCCOCCOCCOCCOCCOCCOCCOCCOCCNC(=O)CCN2C(=O)CC(SC[C@H](NC(=O)[C@H](CCCNC(=N)N)NC(=O)[C@@H]3CCCN3C(=O)[C@H](CCC(N)=O)NC(=O)[C@H](CC(C)C)NC(=O)[C@H](CCCCN)NC(=O)[C@H](C)NC(=O)[C@@H]3CCCN3C(=O)[C@@H]3CCCN3C(=O)[C@H](CCCCN)NC(=O)[C@H](CCCCN)NC(=O)[C@H](CO)NC(=O)[C@H](CCC(=O)O)NC(=O)[C@H](CCCCN)NC(=O)[C@H](CCCNC(=N)N)NC(=O)[C@H](CCC(N)=O)NC(=O)[C@H](CCC(N)=O)NC(=O)[C@@H](NC(=O)[C@H](CCCNC(=N)N)NC(=O)[C@H](CCC(N)=O)NC(=O)[C@H](Cc3c[nH]cn3)NC(=O)[C@H](CCC(=O)O)NC(=O)[C@@H]3CCCN3C(=O)[C@H](CO)NC(=O)[C@H](CC(C)C)NC(=O)[C@H](Cc3ccccc3)NC(=O)[C@H](CNC(=O)CCCCCCC)NC(=O)[C@H](CO)NC(=O)CN)C(C)C)C(=O)O)C2=O)C/C1=C/C=C1\CCC[C@]2(C)[C@@H]([C@H](C)CCCC(C)(C)O)CC[C@@H]12 (some centres unmarked) | real-time RT-PCR, refers to: Il6 | mice, LLC tumour-bearing, tibialis anterior | daily or every other day | baseline: tumour-bearing vehicle | decreased |
| CCc1c(C)nc(-c2ccc(Cl)s2)nc1Nc1ccc(CC(=O)O)cc1 | refers to: PPARα | C57BL/6J mice, high-fat diet, liver | intraperitoneal, 0.3 mg/kg daily, 60% fat diet 12 weeks, dosed last four | baseline: vehicle | decreased |
| CSc1ccc(C(=O)/C=C/c2cc(C)c(OC(C)(C)C(=O)O)c(C)c2)cc1 | RT-PCR, refers to: PNPLA2, LPL, Apo C-II | db/db mice, MCD diet-fed, liver | 30 mg/kg | baseline: model group | no effect |
| CC(=O)Nc1c(F)cc(C(=O)N[C@H]2CC[C@H](O)CC2)cc1O[C@@H](C)c1ccccc1 | liver inflammation, qPCR, refers to: Ccl2 and Cxcl2 | mice, APAP liver injury, liver | oral, 30 mg/kg, 12 h, with: APAP 500 mg/kg intraperitoneal | – | no effect |

A few entries again:
| SMILES | test | test system | setting | how to read | mRNA level |
| --- | --- | --- | --- | --- | --- |
| N#Cc1ccc2c(CN3CCOCC3)cc(-c3ccc([C@H]4CCC(=O)N4)cc3)nc2c1 | decreased, refers to: Tnf | BTBR ob/ob mice, male, diabetic wound model, wound tissue | dose not given, 21 days | baseline: vehicle | decreased |
